Experimental data gathered from unrelated publications.
Each line is one published result; not all experiments were run side by side. Values joined by “and” are separate records of one study, mostly repeats; a detail may differ. ± gives the spread as reported.

SMILES = CSCC[C@H](NC(=O)[C@H](CCCNC(=N)N)NC(=O)[C@H](CCCNC(=N)N)NC(=O)[C@H](CCCCN)NC(=O)[C@H](C)NC(=O)[C@H](CCCNC(=N)N)NC(=O)CNC(=O)[C@@H](NC(=O)CCNC(=O)c1ccc2c(c1)C(=O)OC21c2ccc(O)cc2Oc2cc(O)ccc21)[C@@H](C)O)C(=O)N[C@@H](CSCB(O)O)C(=O)N[C@@H](Cc1ccc(O)cc1)C(=O)N[C@@H](CSCB(O)O)C(=O)N[C@@H](CCCNC(=N)N)C(=O)N[C@@H](CCCNC(=N)N)C(N)=O; assay = HPLC peak area; test system = 50% human serum; setting = 100 µM, 2 h, pH 7.4, 37 °C; scale = baseline: 0 h; endpoint = remaining peptide; value = 80.5% and 79.9% and 77.4%
SMILES = CC[C@H](C)[C@H](NC(=O)[C@H](CCCCN)NC(=O)[C@H](CCC(=O)O)NC(=O)[C@H](CCCCN)NC(=O)[C@H](CO)NC(=O)[C@H](CCCCN)NC(=O)[C@H](CCCNC(=N)N)NC(=O)[C@H](Cc1ccccc1)NC(=O)[C@H](Cc1ccccc1)NC(=O)[C@H](CC(=O)O)NC(=O)CNC(=O)[C@H](CC(C)C)NC(=O)[C@@H](N)CC(C)C)C(=O)NCC(=O)N[C@@H](CCCCN)C(=O)N[C@@H](CCC(=O)O)C(=O)N[C@@H](Cc1ccccc1)C(=O)N[C@@H](CCCCN)C(=O)N[C@@H](CCCNC(=N)N)C(=O)N[C@H](C(=O)N[C@H](C(=O)N[C@@H](CCC(N)=O)C(=O)N[C@@H](CCCNC(=N)N)C(=O)N[C@H](C(=O)N[C@@H](CCCCN)C(=O)N[C@@H](CC(=O)O)C(=O)N[C@@H](Cc1ccccc1)C(=O)N[C@@H](CC(C)C)C(=O)N[C@@H](CCCNC(=N)N)C(=O)N[C@@H](CC(N)=O)C(=O)N[C@@H](CC(C)C)C(=O)N[C@H](C(=O)N1CCC[C@H]1C(=O)N[C@@H](CCCNC(=N)N)C(=O)N[C@H](C(=O)N[C@@H](CCC(=O)O)C(=O)N[C@@H](CO)C(=O)O)[C@@H](C)O)C(C)C)[C@@H](C)CC)C(C)C)[C@@H](C)CC; assay = LC-MS; test system = 50% pooled human serum; setting = 40 µM, 20 min, pH 7.5, 37 °C; scale = baseline: 0 h; endpoint = remaining intact peptide; value = 7.96% and 9.52% and 6.43%
SMILES = CSCC[C@H](NC(=O)[C@H](CCCCN)NC(=O)[C@H](CCCNC(=N)N)NC(=O)[C@H](CO)NC(=O)[C@H](Cc1c[nH]c2ccccc12)NC(=O)[C@H](CCCNC(=N)N)NC(=O)[C@H](CC(C)C)NC(=O)[C@H](N)Cc1ccccc1)C(=O)N1CCC[C@H]1C(=O)N[C@@H](CS)C(=O)N[C@H](C(=O)N[C@@H](CO)C(N)=O)C(C)C; assay = 12G5 competition, SUP-T1 cells; test system = human plasma; setting = concentration not given, 8 h; endpoint = remaining activity; value = 48 ± 6%
SMILES = CC[C@@H](C)[C@@H](NC(=O)[C@@H](Cc1ccc(O)cc1)NC(=O)[C@H]1CCCN1C(=O)[C@@H](CCCNC(=N)N)NC(=O)[C@H](N)Cc1c[nH]cn1)C(=O)N[C@H](C)C(=O)N[C@H](Cc1c[nH]cn1)C(=O)N[C@H](CCCNC(=N)N)C(=O)N[C@@H](C(=O)N[C@H](Cc1ccc(O)cc1)C(=O)N[C@H](CO)C(=O)N[C@H](Cc1ccccc1)C(N)=O)C(C)C; test system = 10% human serum; setting = 72 h; endpoint = remaining compound; value = 93.1% and 92.4% and 91.6%
SMILES = CC(C)C[C@@H]1NC(=O)CNC(=O)[C@H](CC(N)=O)NC(=O)[C@H](CCCNC(=N)N)NC(=O)[C@H]([C@@H](C)O)NC(=O)[C@@H]2CSSC[C@@H]3NC(=O)[C@H]([C@@H](C)O)NC(=O)CNC(=O)CNC(=O)[C@H](C(C)C)NC(=O)[C@@H]4CSSC[C@H](NC(=O)[C@H]([C@@H](C)O)NC(=O)[C@H](CSSC[C@H](NC(=O)[C@H](C(C)C)NC(=O)[C@@H]5CCCN5C1=O)C(=O)NCC(=O)N[C@@H](CCC(=O)O)C(=O)N[C@@H]([C@@H](C)O)C(=O)N4)NC(=O)CNC(=O)[C@H](CCCCN)NC(=O)[C@H]([C@@H](C)O)NC(=O)[C@H](CC(N)=O)NC3=O)C(=O)N[C@@H](CO)C(=O)N[C@@H](Cc1c[nH]c3ccccc13)C(=O)N1CCC[C@H]1C(=O)N[C@@H](C(C)C)C(=O)N2; assay = HPLC; test system = ammonium bicarbonate; setting = 180 µM, 14 days, pH 9.0, 25 °C, deamidation stability; endpoint = remaining peptide; value = 89.5 ± 0.6%
SMILES = C/C(=C\CCP(=O)(OCOC(=O)c1ccccc1)Oc1ccc(C(C)C)cc1)CO (stereo not shown); test system = 50% Sprague-Dawley rat plasma; setting = 100 µM, 2 h, pH 7.5, 37 °C; endpoint = remaining compound; value = 0.079%
SMILES = CC(C)C[C@@H]1NC(=O)CNC(=O)[C@H](CC(N)=O)NC(=O)[C@H](CCCNC(=N)N)NC(=O)[C@H]([C@@H](C)O)NC(=O)[C@@H]2CSSC[C@@H]3NC(=O)[C@H]([C@@H](C)O)NC(=O)CNC(=O)CNC(=O)[C@H](C(C)C)NC(=O)[C@@H]4CSSC[C@H](NC(=O)[C@H]([C@@H](C)O)NC(=O)[C@H](CSSC[C@H](NC(=O)[C@H](C(C)C)NC(=O)[C@@H]5CCCN5C1=O)C(=O)NCC(=O)N[C@@H](CCC(=O)O)C(=O)N[C@@H]([C@@H](C)O)C(=O)N4)NC(=O)CNC(=O)[C@@H]1CCCN1C(=O)[C@H]([C@@H](C)O)NC(=O)[C@H](CC(N)=O)NC3=O)C(=O)N[C@@H](CO)C(=O)N[C@@H](Cc1c[nH]c3ccccc13)C(=O)N1CCC[C@H]1C(=O)N[C@@H](CCCCN)C(=O)N2; assay = HPLC; test system = ammonium bicarbonate 0.1 M; setting = 180 µM, 14 days, pH 9.0, 37 °C, deamidation stability; endpoint = remaining peptide; value = 30.1 ± 5.9%
SMILES = CSCC[C@H](NC(=O)[C@H](CCCCN)NC(=O)[C@H](CCCNC(=N)N)NC(=O)[C@H](CO)NC(=O)[C@H](Cc1c[nH]c2ccccc12)NC(=O)[C@H](CCCNC(=N)N)NC(=O)[C@H](CC(C)C)NC(=O)[C@@H](CO)NC(C)=O)C(=O)N1CCC[C@H]1C(=O)N[C@@H](CS)C(=O)N[C@H](C(=O)N[C@@H](CO)C(N)=O)C(C)C; assay = 12G5 competition, SUP-T1 cells; test system = human plasma; setting = concentration not given, 2 h; endpoint = remaining activity; value = 65 ± 4%
SMILES = CC(C)C[C@@H]1NC(=O)[C@H](CC(N)=O)NC(=O)[C@H](CCCNC(=N)N)NC(=O)[C@H]([C@@H](C)O)NC(=O)[C@@H]2CSSC[C@@H]3NC(=O)[C@H]([C@@H](C)O)NC(=O)CNC(=O)CNC(=O)[C@H](C(C)C)NC(=O)[C@@H]4CSSC[C@H](NC(=O)[C@H]([C@@H](C)O)NC(=O)[C@H](CSSC[C@H](NC(=O)[C@H](C(C)C)NC(=O)[C@@H]5CCCN5C(=O)[C@H](CC(C)C)NC1=O)C(=O)NCC(=O)N[C@@H](CCC(=O)O)C(=O)N[C@@H]([C@@H](C)O)C(=O)N4)NC(=O)CNC(=O)[C@@H]1CCCN1C(=O)[C@H]([C@@H](C)O)NC(=O)[C@H](CC(N)=O)NC3=O)C(=O)N[C@@H](CO)C(=O)N[C@@H](Cc1c[nH]c3ccccc13)C(=O)N1CCC[C@H]1C(=O)N[C@@H](C(C)C)C(=O)N2; assay = HPLC; test system = ammonium bicarbonate 0.1 M; setting = 180 µM, 14 days, pH 9.0, 37 °C, deamidation stability; endpoint = remaining peptide; value = 95.6 ± 4.2%
SMILES = CC[C@@H](C)[C@@H](NC(C)=O)C(=O)N[C@@H](CC(C)C)C(=O)N[C@@H](CCCNC(=N)N)C(=O)N[C@@H](Cc1c[nH]c2ccccc12)C(=O)N[C@@H](CO)C(=O)N[C@@H](CCCNC(=N)N)C(=O)N[C@@H](CCCCN)C(=O)N[C@@H](CC(C)C)C(=O)N1CCC[C@H]1C(=O)N[C@@H](CS)C(=O)N[C@H](C(=O)N[C@@H](CO)C(N)=O)C(C)C; assay = 12G5 competition, SUP-T1 cells; test system = human plasma; setting = concentration not given, 8 h; endpoint = remaining activity; value = 71 ± 17%
SMILES = O=C/C=C/c1ccccc1; test system = FaSSIF; setting = 2 h, pH 6.45, 37 °C; endpoint = remaining concentration; value = 320 ± 30 µg/mL
SMILES = CC(C)C[C@@H]1NC(=O)CNC(=O)[C@H](CC(N)=O)NC(=O)[C@H](CCCNC(=N)N)NC(=O)[C@H]([C@@H](C)O)NC(=O)[C@@H]2CSSC[C@@H]3NC(=O)[C@H]([C@@H](C)O)NC(=O)CNC(=O)CNC(=O)[C@H](C(C)C)NC(=O)[C@@H]4CSSC[C@H](NC(=O)[C@H]([C@@H](C)O)NC(=O)[C@H](CSSC[C@H](NC(=O)[C@H](C(C)C)NC(=O)[C@@H]5CCCN5C1=O)C(=O)NCC(=O)N[C@@H](CCC(=O)O)C(=O)N[C@@H]([C@@H](C)O)C(=O)N4)NC(=O)CNC(=O)[C@@H]1CCCN1C(=O)[C@H]([C@@H](C)O)NC(=O)[C@H](CC(N)=O)NC3=O)C(=O)N[C@@H](CCCCN)C(=O)N[C@@H](Cc1c[nH]c3ccccc13)C(=O)N1CCC[C@H]1C(=O)N[C@@H](C(C)C)C(=O)N2; assay = HPLC; test system = water; setting = 180 µM, 14 days, 37 °C, deamidation stability; endpoint = remaining peptide; value = 98 ± 0.6%
SMILES = CCCCN1CCC(COC(=O)c2ccc(N)c(O[11CH3])c2)CC1; test system = rhesus monkey whole blood; setting = 30 min, with: NaN3 64 mM; endpoint = remaining parent compound; value = 76.9%

Repeated from above:
SMILES = CC[C@@H](C)[C@@H](NC(C)=O)C(=O)N[C@@H](CC(C)C)C(=O)N[C@@H](CCCNC(=N)N)C(=O)N[C@@H](Cc1c[nH]c2ccccc12)C(=O)N[C@@H](CO)C(=O)N[C@@H](CCCNC(=N)N)C(=O)N[C@@H](CCCCN)C(=O)N[C@@H](CC(C)C)C(=O)N1CCC[C@H]1C(=O)N[C@@H](CS)C(=O)N[C@H](C(=O)N[C@@H](CO)C(N)=O)C(C)C; assay = 12G5 competition, SUP-T1 cells; test system = human plasma; setting = concentration not given, 8 h; endpoint = remaining activity; value = 71 ± 17%
SMILES = CC(C)C[C@@H]1NC(=O)[C@H](CC(N)=O)NC(=O)[C@H](CCCNC(=N)N)NC(=O)[C@H]([C@@H](C)O)NC(=O)[C@@H]2CSSC[C@@H]3NC(=O)[C@H]([C@@H](C)O)NC(=O)CNC(=O)CNC(=O)[C@H](C(C)C)NC(=O)[C@@H]4CSSC[C@H](NC(=O)[C@H]([C@@H](C)O)NC(=O)[C@H](CSSC[C@H](NC(=O)[C@H](C(C)C)NC(=O)[C@@H]5CCCN5C(=O)[C@H](CC(C)C)NC1=O)C(=O)NCC(=O)N[C@@H](CCC(=O)O)C(=O)N[C@@H]([C@@H](C)O)C(=O)N4)NC(=O)CNC(=O)[C@@H]1CCCN1C(=O)[C@H]([C@@H](C)O)NC(=O)[C@H](CC(N)=O)NC3=O)C(=O)N[C@@H](CO)C(=O)N[C@@H](Cc1c[nH]c3ccccc13)C(=O)N1CCC[C@H]1C(=O)N[C@@H](C(C)C)C(=O)N2; assay = HPLC; test system = ammonium bicarbonate 0.1 M; setting = 180 µM, 14 days, pH 9.0, 37 °C, deamidation stability; endpoint = remaining peptide; value = 95.6 ± 4.2%
